Measured values of several laboratories.
Each numbered part is a random draw from the data of one study; scales do not carry over between parts. “And” joins repeats or separate records; there may be more than shown.

Set 1
Structure (SMILES): CN(C1COC1)C(C)(C)/C=C(\C#N)C(=O)N1CCC[C@H]1Cn1nc(-c2ccc(Oc3ccccc3)cc2F)c2c(N)ncnc21
JAK1: Tyrosine-protein kinase JAK1 (JAK1, Homo sapiens, UniProt P23458)
UniProt P23458, sequence (whole entry, looked up): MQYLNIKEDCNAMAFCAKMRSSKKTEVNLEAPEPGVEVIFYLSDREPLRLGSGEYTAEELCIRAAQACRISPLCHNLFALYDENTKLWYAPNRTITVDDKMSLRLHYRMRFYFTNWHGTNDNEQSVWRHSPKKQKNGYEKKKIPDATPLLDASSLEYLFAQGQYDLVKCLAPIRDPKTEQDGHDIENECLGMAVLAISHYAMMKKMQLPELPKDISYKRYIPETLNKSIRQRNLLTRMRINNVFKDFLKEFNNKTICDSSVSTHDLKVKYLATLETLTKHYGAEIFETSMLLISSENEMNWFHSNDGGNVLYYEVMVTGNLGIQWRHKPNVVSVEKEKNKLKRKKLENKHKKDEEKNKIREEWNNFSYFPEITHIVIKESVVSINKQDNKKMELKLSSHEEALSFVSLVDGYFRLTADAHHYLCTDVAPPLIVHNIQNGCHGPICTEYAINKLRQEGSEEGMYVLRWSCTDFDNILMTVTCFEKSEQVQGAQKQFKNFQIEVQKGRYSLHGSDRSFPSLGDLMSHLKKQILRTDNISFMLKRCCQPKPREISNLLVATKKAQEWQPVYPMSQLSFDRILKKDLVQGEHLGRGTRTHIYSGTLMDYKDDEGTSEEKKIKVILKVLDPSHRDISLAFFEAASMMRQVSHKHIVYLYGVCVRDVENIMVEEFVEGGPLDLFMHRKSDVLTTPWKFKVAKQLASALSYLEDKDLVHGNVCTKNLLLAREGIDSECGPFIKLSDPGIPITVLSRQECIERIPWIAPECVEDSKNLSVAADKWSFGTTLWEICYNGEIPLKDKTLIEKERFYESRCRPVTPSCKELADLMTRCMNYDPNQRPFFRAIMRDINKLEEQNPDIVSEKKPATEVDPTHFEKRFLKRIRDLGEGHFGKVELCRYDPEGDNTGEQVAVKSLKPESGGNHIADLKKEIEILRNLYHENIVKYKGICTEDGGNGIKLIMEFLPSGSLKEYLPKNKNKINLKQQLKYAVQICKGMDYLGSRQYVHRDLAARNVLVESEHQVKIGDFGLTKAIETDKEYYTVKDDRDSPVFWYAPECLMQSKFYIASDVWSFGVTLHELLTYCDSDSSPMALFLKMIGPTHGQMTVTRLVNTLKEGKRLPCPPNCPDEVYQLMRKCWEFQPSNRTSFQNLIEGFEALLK
SRSF protein kinase 1 (SRPK1, Homo sapiens, UniProt Q96SB4); kinase activity; 1 µM — inhibition: -1%.
The inhibition was 3% (Serine/threonine-protein kinase PLK4 (PLK4, Homo sapiens, UniProt O00444); kinase activity; 0.1 µM).
The inhibition was 1% (TRAF2 and NCK-interacting protein kinase (TNIK, Homo sapiens, UniProt Q9UKE5); kinase activity; 0.1 µM).
For Misshapen-like kinase 1 (MINK1, Homo sapiens, UniProt Q8N4C8); kinase activity; 0.1 µM: inhibition read 7%.
For CK1; 0.1 µM, mean: inhibition read -5%.
JAK1; kinase activity; 0.1 µM — inhibition: 9%.
It gave 1% for inhibition (Insulin receptor-related protein (INSRR, Homo sapiens, UniProt P14616); kinase activity; 0.1 µM).
For Eukaryotic translation initiation factor 2-alpha kinase 3 (EIF2AK3, Homo sapiens, UniProt Q9NZJ5); kinase activity; 0.1 µM: inhibition read -9%.
Calcium/calmodulin-dependent protein kinase type II subunit alpha (CAMK2A, Homo sapiens, UniProt Q9UQM7); kinase activity; 1 µM — inhibition: 3%.
Mitogen-activated protein kinase 1 (MAPK1, Homo sapiens, UniProt P28482); kinase activity; 0.1 µM — inhibition: 1%.
For Serine/threonine-protein kinase Nek1 (NEK1, Homo sapiens, UniProt Q96PY6); kinase activity; 0.1 µM: inhibition read 3%.
The inhibition was -6% (Dual specificity tyrosine-phosphorylation-regulated kinase 2 (DYRK2, Homo sapiens, UniProt Q92630); kinase activity; 0.1 µM).
For Tyrosine-protein kinase Tec (TEC, Homo sapiens, UniProt P42680); kinase activity; 1 µM: inhibition read 91%.
It gave -2% for inhibition (Casein kinase I isoform gamma-2 (CSNK1G2, Homo sapiens, UniProt P78368); kinase activity; 1 µM).
For JAK1; kinase activity; 1 µM: inhibition read 6%.
The inhibition was 2% (MAP/microtubule affinity-regulating kinase 4 (MARK4, Homo sapiens, UniProt Q96L34); kinase activity; 1 µM).
For Protein kinase C iota type (PRKCI, Homo sapiens, UniProt P41743); kinase activity; 0.1 µM: inhibition read -3%.
The inhibition was 8% (Serine/threonine-protein kinase pim-1 (PIM1, Homo sapiens, UniProt P11309); kinase activity; 0.1 µM).

Set 2
SMILES: CCN1/C(=C/C=C2\CCCC(/C=C/C3=[N+](CC)c4ccccc4C3(C)C)=C2NCCCCCCCCN2CCC(Nc3nc4ccccc4n3Cc3ccc(F)cc3)CC2)C(C)(C)c2ccccc21
Cell line: U-87 MG
Concentration: concentration not given
Baseline: DMSO
item: ITGA4 mRNA — “log2 fold change”: -1.78.
The “log2 fold change” was 1.69 (item: ST3GAL1 mRNA).
The “log2 fold change” was 1.26 (item: STX3 mRNA).
For item: ADAM19 mRNA: “log2 fold change” read -2.1.
For item: FSCN2 mRNA: “log2 fold change” read -1.62.
item: TSLP mRNA — “log2 fold change”: 2.06.
item: TSPAN4 mRNA — “log2 fold change”: -1.41.
For item: OSER1 mRNA: “log2 fold change” read 1.24.
The “log2 fold change” was -1.85 (item: BUB1 mRNA).
item: TRIM55 mRNA — “log2 fold change”: -3.09.
It gave 0.886 for “log2 fold change” (item: SRC mRNA).
For item: LIN9 mRNA: “log2 fold change” read -1.14.

Set 3
Compound: Cc1ccc(O)c(C)c1-c1cnc2[nH]c(-c3cnc(N4CCC(CCN5CCN(c6ccc7c(c6)C(=O)N(C6CCC(=O)NC6=O)C7=O)CC5)CC4)nc3)cc2c1C#N (racemic)
Cell line: HCC1569
Technique: in-cell western
Item: CDK1 phospho-Thr14
For 333.33 nM: “pCDK1 (Thr14) level” read 69.4 RLU and 70.6 RLU.
For 111.11 nM: “pCDK1 (Thr14) level” read 36.4 RLU and 37.7 RLU.
For 4.12 nM: “pCDK1 (Thr14) level” read 11.3 RLU and 19.9 RLU.
For 37.04 nM: “pCDK1 (Thr14) level” read 27.2 RLU and 25.3 RLU.
The “pCDK1 (Thr14) level” was 104 RLU and 106 RLU (1000 nM).

Set 4
Target: Cyclin-dependent kinase 12, with cyclin K (CDK12, Homo sapiens, UniProt Q9NYV4)
UniProt Q9NYV4, sequence (whole entry, looked up): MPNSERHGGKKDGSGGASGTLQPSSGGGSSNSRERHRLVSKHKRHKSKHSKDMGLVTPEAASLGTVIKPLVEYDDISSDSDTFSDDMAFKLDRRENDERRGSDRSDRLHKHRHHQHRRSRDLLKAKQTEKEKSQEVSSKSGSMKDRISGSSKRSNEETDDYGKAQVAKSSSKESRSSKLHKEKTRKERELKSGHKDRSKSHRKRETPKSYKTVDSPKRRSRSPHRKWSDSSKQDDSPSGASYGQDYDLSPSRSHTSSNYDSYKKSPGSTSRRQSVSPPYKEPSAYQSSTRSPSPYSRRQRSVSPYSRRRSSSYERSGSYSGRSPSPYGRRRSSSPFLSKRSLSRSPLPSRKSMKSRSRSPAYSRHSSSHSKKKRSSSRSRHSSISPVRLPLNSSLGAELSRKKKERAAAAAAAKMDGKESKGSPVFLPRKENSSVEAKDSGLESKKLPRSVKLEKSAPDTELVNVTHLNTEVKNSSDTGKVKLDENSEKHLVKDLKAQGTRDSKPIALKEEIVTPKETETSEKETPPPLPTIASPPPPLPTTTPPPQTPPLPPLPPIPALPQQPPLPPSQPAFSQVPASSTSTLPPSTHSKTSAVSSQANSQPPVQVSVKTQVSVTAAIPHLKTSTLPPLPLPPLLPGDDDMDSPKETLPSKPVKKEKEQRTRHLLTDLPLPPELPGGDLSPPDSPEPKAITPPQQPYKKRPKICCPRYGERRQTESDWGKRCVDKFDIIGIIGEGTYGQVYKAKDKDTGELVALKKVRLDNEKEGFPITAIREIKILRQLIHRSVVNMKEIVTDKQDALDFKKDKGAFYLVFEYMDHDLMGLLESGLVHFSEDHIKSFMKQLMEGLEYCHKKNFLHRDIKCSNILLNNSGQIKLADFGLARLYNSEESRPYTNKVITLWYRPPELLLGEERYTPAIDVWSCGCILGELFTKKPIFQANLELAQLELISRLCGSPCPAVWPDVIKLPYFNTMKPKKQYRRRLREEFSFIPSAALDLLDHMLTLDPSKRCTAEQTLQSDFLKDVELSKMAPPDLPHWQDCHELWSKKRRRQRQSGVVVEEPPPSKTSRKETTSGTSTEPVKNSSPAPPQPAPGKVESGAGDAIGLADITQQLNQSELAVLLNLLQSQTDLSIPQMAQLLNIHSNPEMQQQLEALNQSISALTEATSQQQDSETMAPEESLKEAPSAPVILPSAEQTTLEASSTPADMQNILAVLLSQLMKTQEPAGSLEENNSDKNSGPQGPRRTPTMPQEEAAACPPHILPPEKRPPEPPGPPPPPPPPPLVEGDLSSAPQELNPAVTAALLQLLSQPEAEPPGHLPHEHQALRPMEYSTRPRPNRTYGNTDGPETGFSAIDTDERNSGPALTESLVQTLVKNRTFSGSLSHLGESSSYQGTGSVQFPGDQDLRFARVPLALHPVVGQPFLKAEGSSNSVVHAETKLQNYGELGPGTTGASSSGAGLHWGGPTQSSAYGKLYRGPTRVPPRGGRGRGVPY
Observed: kinase activity
Action: inhibitor
Technique: ADP-Glo
Concentration: 0.0003 µM
CC(=O)N1CCN(c2nc(NCc3nc4cc(Cl)c(Cl)cc4[nH]3)c3ncn(C(C)C)c3n2)CC1 has an inhibition of 1.4%.
The inhibition of CCn1cnc2c(NCc3nc4cc(Cl)c(Cl)cc4[nH]3)nc(N3CCC(NC(C)=O)CC3)nc21 is reported as -3.6%.
CCn1cnc2c(NCc3nc4cc(Cl)c(Cl)cc4[nH]3)nc(N3CCN(C(=O)CNC(C)=O)CC3)nc21 has an inhibition of 2%.
CCn1cnc2c(NCc3nc4cc(Cl)c(Cl)cc4[nH]3)nc(N3CCN(C(=O)c4ccncc4)CC3)nc21 has an inhibition of -0.1%.
With CCCCOc1nc(NCc2nc3cc(Cl)c(Cl)cc3[nH]2)c2ncn(CC)c2n1 the inhibition was 8.5%.
The inhibition of CC(=O)N1CCN(c2nc(NCc3nc4cc(Cl)c(Cl)cc4[nH]3)c3ncn(-c4cnn(C)c4)c3n2)CC1 is reported as -7.5%.
For Cn1cc(-n2cnc3c(NCc4nc5cc(Cl)c(Cl)cc5[nH]4)nc(N4CCNCC4)nc32)cn1, the inhibition was -5%.
CCn1cnc2c(NCc3nc4cc(Cl)c(Cl)cc4[nH]3)nc(N3CCN(Cc4ccncc4)CC3)nc21 gave an inhibition of -7.7%.
The inhibition of CCn1cnc2c(NCc3nc4cc(Cl)c(Cl)cc4[nH]3)nc(N3CCn4ncnc4C3)nc21 is reported as 15.4%.

Set 5
SMILES: CC[C@@]1(c2cccc(-c3c(F)cncc3OC)c2)C2=C(Nc3n[nH]cc31)[C@H](F)C(C)(C)CC2=O (single isomer, unassigned)
Concentration: 1 µM
For Myosin light chain kinase (MYLK3, Homo sapiens, UniProt Q32MK0); kinase binding, KINOMEscan; baseline: DMSO control: remaining binding read 83%.
For Tyrosine-protein kinase HCK (HCK, Homo sapiens, UniProt P08631); binding, competition with immobilised ligand: remaining binding read 71%.
Serine/threonine-protein kinase PLK4 (PLK4, Homo sapiens, UniProt O00444); binding, competition with immobilised ligand — remaining binding: 74%.
It gave 84% for remaining binding (Dual specificity protein kinase CLK1 (CLK1, Homo sapiens, UniProt P49759); binding, competition with immobilised ligand).
The remaining binding was 63% (Phosphatidylinositol 4,5-bisphosphate 3-kinase catalytic subunit alpha isoform (PIK3CA, Homo sapiens, UniProt P42336, Q546K); kinase binding, KINOMEscan; baseline: DMSO control).
It gave 100% for remaining binding (Mitogen-activated protein kinase kinase kinase 10 (MAP3K10, Homo sapiens, UniProt Q02779); kinase binding, KINOMEscan; baseline: DMSO control).
Protein kinase C theta type (PRKCQ, Homo sapiens, UniProt Q04759); binding, competition with immobilised ligand — remaining binding: 100%.
The remaining binding was 85% (Inhibitor of nuclear factor kappa-B kinase subunit alpha (CHUK, Homo sapiens, UniProt O15111); binding, competition with immobilised ligand).
Calcium/calmodulin-dependent protein kinase type 1G (CAMK1G, Homo sapiens, UniProt Q96NX5); kinase binding, KINOMEscan; baseline: DMSO control — remaining binding: 92%.
For Mast/stem cell growth factor receptor Kit (KIT, Homo sapiens, UniProt P10721, T670I/V559D); binding, competition with immobilised ligand: remaining binding read 100%.
Serine/threonine-protein kinase Nek10 (NEK10, Homo sapiens, UniProt Q6ZWH5); kinase binding, KINOMEscan; baseline: DMSO control — remaining binding: 14%.
Tyrosine-protein kinase BTK (BTK, Homo sapiens, UniProt Q06187); kinase binding, KINOMEscan; baseline: DMSO control — remaining binding: 77%.
For Tyrosine-protein kinase TXK (TXK, Homo sapiens, UniProt P42681); kinase binding, KINOMEscan; baseline: DMSO control: remaining binding read 89%.
The remaining binding was 72% (Serine/threonine-protein kinase SBK1 (SBK1, Homo sapiens, UniProt Q52WX2); binding, competition with immobilised ligand).
For Calcium/calmodulin-dependent protein kinase type II subunit beta (CAMK2B, Homo sapiens, UniProt Q13554); binding, competition with immobilised ligand: remaining binding read 88%.
For 5'-AMP-activated protein kinase catalytic subunit alpha-2 (PRKAA2, Homo sapiens, UniProt P54646); kinase binding, KINOMEscan; baseline: DMSO control: remaining binding read 90%.
Ribosomal protein S6 kinase alpha-4, C-terminal kinase domain (RPS6KA4, Homo sapiens, UniProt O75676); binding, competition with immobilised ligand — remaining binding: 74%.
It gave 79% for remaining binding (Rhodopsin kinase GRK1 (GRK1, Homo sapiens, UniProt Q15835); binding, competition with immobilised ligand).

Set 6
Organism: Arabidopsis thaliana
Strain: Col-0
Concentration: 6.25 µg/mL
Setting: seed germination, single repetition
For CCCN1C(=O)C(O)(C(=O)O)Oc2cc(F)ccc21 (stereo not shown), the hypocotyl length was 2.16 cm and 2.2 cm and 2.11 cm.
With COc1ccc2c(c1)OC(O)(C(=O)O)C(=O)N2Cc1ccccc1 (stereo not shown) the hypocotyl length was 1.9 cm and 1.93 cm and 1.85 cm and 1.88 cm.
For O=C(O)C1(O)Oc2cc(Cl)ccc2N(Cc2ccccc2)C1=O (stereo not shown), the hypocotyl length was 2.04 cm and 2.08 cm and 2.06 cm and 2.05 cm.
For Cc1ccc2c(c1)OC(O)(C(=O)O)C(=O)N2Cc1ccccc1 (stereo not shown), the hypocotyl length was 2.01 cm and 2.07 cm and 2.05 cm and 2.08 cm.
CN1C(=O)C(O)(C(=O)O)Oc2cc(F)ccc21 (stereo not shown) has a hypocotyl length of 2.2 cm and 2.19 cm and 2.1 cm and 2.03 cm and 2.08 cm.

Set 7
SMILES: C[C@@H]1CN(c2ccc(-c3cc(C(=O)NCCOCCOCCOCCOCCNC(=O)/C=C/c4[nH]cc(C(=O)N[C@@H](CC(N)=O)c5ccc(F)c(Cl)c5)c4-c4ccc(Cl)cc4F)ccc3F)cc2NC(=O)c2c[nH]c(=O)cc2C(F)(F)F)C[C@H](C)N1C
Observed: thermal unfolding
Technique: differential scanning fluorimetry
Concentration: 5.5 µM
Reading: higher = more unfolded
DCAF1: DDB1- and CUL4-associated factor 1 (DCAF1, Homo sapiens, UniProt Q9Y4B6)
UniProt Q9Y4B6, sequence (whole entry, looked up): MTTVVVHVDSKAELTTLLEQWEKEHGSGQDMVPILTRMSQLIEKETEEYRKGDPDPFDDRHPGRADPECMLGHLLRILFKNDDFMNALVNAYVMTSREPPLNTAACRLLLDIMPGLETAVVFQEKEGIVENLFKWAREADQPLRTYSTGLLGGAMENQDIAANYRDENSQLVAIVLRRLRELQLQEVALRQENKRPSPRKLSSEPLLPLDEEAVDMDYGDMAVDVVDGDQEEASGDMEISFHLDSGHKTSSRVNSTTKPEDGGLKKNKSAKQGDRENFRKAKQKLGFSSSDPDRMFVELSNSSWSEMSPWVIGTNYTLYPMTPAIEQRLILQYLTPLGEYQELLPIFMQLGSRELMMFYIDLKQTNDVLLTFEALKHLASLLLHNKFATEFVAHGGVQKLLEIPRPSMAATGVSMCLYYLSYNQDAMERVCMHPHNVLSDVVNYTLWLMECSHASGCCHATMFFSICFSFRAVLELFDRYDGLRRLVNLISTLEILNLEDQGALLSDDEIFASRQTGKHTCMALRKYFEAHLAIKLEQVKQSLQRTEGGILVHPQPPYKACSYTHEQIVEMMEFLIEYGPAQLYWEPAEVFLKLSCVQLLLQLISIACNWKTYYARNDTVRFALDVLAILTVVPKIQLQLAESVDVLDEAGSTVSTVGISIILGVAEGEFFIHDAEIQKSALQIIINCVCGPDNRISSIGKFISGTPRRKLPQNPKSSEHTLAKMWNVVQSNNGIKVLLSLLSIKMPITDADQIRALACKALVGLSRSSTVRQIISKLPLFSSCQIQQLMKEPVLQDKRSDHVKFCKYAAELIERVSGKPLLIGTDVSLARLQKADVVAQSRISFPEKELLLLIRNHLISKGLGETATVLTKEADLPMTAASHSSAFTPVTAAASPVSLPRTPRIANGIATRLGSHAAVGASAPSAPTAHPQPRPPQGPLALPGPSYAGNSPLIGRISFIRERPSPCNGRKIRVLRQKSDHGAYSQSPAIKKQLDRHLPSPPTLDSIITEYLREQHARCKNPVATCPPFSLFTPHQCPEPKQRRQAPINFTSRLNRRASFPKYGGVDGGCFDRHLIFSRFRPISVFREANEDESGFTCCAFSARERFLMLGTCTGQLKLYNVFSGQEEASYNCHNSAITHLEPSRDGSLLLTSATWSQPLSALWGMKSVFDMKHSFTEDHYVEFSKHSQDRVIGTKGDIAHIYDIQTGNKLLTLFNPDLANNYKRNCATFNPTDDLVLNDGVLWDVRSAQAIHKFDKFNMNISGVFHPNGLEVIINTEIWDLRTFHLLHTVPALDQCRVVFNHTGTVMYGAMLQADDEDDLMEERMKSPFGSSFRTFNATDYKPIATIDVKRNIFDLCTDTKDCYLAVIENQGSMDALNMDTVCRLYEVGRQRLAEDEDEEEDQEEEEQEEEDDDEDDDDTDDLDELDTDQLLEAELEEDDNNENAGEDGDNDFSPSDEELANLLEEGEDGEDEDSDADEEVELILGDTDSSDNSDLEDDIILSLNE
WDR5: WD repeat-containing protein 5 (WDR5, Homo sapiens, UniProt P61964)
The “SYPRO Orange fluorescence” was 45900 a.u. (DCAF1; 79.41 °C).
The “SYPRO Orange fluorescence” was 45200 a.u. (DCAF1; 80.01 °C).
DCAF1; 62.81 °C — “SYPRO Orange fluorescence”: 53200 a.u.
It gave 14000 a.u. for “SYPRO Orange fluorescence” (WDR5; 63.81 °C).
The “SYPRO Orange fluorescence” was 12900 a.u. (WDR5; 33.2 °C).
The “SYPRO Orange fluorescence” was 51400 a.u. (WDR5; 84.41 °C).
DCAF1; 29.8 °C — “SYPRO Orange fluorescence”: 9490 a.u.
For WDR5; 85.21 °C: “SYPRO Orange fluorescence” read 52500 a.u.
The “SYPRO Orange fluorescence” was 44000 a.u. (DCAF1; 81.01 °C).
WDR5; 74.21 °C — “SYPRO Orange fluorescence”: 23900 a.u.
It gave 14000 a.u. for “SYPRO Orange fluorescence” (WDR5; 64.41 °C).

Further values, each from its own experiment
MPO: Myeloperoxidase (MPO, Homo sapiens, UniProt P05164)
UniProt P05164, sequence (whole entry, looked up): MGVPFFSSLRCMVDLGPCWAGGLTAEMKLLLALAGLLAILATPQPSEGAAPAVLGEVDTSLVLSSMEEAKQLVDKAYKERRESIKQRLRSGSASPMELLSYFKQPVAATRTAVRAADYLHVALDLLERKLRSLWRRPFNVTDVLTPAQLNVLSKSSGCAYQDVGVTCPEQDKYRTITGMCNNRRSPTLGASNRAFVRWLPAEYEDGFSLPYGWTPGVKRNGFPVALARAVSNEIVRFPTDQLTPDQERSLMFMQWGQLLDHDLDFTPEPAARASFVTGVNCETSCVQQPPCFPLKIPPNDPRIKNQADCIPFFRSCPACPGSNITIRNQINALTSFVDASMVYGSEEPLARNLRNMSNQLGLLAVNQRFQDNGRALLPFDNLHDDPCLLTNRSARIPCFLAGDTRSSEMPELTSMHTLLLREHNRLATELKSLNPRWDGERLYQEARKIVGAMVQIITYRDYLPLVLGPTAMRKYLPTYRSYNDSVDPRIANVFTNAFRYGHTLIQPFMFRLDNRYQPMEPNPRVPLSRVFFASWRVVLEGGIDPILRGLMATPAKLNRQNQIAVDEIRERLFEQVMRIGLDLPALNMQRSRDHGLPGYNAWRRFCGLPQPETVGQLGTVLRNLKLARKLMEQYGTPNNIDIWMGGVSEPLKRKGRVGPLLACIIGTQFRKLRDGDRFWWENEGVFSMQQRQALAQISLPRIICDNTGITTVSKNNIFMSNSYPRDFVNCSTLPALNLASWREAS
For COc1ccc(Cl)cc1-c1cc(=O)[nH]c(=S)n1CC(N)=O, the remaining activity was 65.8% (MPO; enzyme activity, inhibitor; 0.41 µM).
NC/C(=C\F)COc1cccc(Cn2c(=S)[nH]c(=O)c3[nH]cnc32)c1 — result for “blood to plasma ratio”: 0.99 (human whole blood; 1 h).
CC(C)(C)NC(=O)c1ccc(OC/C(=C/F)CN)cc1 has an inhibition of -14.3% and -8.21% and -10.9% (MPO; enzyme activity, inhibitor, fluorescence; 0.1235 µM).
With CS(=O)(=O)c1ccc(OC/C(=C/F)CN)cc1.Cl the activity response was 88.2% (Amine oxidase [copper-containing] 3 (Rattus norvegicus, UniProt O08590); enzyme activity; concentration not given, rat enzyme).
